Published values pooled from the literature.
A part holds a random share of what one study measured. “And” joins repeats or separate records; there may be more than shown.
Chain of UniProt Q13976 (whole entry, looked up): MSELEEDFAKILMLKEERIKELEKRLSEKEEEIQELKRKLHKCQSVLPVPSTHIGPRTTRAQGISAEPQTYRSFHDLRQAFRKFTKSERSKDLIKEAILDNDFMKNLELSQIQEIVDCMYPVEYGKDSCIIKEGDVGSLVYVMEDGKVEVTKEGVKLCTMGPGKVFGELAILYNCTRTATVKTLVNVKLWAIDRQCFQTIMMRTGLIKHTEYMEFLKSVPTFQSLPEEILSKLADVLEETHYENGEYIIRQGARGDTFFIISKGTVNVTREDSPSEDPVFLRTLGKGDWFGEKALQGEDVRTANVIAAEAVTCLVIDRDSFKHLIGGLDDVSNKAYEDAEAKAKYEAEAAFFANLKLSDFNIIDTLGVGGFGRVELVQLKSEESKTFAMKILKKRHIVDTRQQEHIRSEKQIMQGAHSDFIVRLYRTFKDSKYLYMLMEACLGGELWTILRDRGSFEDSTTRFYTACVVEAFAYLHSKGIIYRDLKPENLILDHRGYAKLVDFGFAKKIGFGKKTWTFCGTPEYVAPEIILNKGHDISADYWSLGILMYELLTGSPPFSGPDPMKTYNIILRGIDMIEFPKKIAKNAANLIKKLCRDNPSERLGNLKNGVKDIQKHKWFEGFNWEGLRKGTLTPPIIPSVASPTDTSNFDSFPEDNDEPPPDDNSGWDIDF
Chain of UniProt O96017 (whole entry, looked up): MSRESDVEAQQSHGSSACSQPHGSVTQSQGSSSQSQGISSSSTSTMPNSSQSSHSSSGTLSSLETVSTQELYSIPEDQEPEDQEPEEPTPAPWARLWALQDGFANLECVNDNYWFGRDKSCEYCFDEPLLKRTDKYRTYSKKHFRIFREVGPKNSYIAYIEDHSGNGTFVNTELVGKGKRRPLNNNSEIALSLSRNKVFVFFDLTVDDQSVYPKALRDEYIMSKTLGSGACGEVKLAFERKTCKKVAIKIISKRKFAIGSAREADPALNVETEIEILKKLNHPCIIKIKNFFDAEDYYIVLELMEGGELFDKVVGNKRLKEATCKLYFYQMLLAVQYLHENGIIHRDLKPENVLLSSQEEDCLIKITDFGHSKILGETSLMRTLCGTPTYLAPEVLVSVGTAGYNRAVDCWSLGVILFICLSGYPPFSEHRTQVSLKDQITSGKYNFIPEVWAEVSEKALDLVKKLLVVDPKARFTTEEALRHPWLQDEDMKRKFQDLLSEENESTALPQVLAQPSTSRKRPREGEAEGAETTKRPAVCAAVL
Chain of UniProt P78356 (whole entry, looked up): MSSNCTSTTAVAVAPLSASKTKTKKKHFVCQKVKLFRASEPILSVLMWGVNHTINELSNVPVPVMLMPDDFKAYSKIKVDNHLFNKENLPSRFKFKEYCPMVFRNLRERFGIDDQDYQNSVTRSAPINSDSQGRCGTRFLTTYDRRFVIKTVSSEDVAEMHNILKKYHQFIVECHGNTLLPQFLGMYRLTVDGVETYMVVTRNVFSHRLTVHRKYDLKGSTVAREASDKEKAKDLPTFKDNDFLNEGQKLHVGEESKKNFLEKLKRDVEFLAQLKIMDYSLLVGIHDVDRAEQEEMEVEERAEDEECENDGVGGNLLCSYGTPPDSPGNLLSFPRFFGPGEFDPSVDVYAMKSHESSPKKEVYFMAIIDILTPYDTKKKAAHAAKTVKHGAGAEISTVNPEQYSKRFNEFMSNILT
Chain of UniProt Q9UM73 (whole entry, unmodified, looked up): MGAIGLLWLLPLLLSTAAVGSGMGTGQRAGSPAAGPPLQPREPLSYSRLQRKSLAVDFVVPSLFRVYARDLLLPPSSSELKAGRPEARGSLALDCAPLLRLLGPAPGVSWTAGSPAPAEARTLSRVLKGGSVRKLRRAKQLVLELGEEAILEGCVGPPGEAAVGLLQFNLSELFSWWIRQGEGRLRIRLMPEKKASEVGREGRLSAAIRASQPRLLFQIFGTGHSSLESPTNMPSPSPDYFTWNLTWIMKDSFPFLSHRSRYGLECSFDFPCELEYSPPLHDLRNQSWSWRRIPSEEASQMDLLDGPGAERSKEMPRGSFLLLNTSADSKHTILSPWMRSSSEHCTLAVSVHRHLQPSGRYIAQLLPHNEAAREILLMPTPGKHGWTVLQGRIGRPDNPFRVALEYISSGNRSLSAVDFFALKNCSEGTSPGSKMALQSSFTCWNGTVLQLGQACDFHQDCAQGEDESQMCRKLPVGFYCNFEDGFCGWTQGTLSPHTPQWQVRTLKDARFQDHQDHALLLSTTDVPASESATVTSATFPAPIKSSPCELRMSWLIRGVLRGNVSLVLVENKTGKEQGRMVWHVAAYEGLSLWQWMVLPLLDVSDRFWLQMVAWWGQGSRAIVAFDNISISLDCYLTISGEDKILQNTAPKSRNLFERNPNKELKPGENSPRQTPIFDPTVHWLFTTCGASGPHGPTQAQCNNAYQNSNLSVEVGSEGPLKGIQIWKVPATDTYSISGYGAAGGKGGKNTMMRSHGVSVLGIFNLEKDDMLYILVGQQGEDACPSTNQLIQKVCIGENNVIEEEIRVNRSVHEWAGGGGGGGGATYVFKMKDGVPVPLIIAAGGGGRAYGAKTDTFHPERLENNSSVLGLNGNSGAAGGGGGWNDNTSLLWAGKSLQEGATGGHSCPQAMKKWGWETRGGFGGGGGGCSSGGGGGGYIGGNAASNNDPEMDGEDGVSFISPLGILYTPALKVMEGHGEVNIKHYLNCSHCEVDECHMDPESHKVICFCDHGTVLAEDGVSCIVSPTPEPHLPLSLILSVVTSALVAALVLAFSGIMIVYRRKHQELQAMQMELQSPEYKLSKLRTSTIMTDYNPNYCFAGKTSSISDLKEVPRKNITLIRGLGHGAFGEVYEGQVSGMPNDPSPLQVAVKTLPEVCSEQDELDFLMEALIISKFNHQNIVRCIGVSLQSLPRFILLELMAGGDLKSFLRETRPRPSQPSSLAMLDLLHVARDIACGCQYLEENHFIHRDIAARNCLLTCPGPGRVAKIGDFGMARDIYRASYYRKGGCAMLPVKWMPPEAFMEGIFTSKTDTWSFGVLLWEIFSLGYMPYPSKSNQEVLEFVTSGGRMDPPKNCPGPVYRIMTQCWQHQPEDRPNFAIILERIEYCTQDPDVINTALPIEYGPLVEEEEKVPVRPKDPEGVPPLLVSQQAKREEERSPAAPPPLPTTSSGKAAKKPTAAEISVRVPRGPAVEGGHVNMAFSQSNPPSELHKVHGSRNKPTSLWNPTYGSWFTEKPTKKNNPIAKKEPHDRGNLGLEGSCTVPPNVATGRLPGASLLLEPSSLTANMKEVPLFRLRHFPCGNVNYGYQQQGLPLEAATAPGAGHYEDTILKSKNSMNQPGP
Chain of UniProt P53355 (whole entry, looked up): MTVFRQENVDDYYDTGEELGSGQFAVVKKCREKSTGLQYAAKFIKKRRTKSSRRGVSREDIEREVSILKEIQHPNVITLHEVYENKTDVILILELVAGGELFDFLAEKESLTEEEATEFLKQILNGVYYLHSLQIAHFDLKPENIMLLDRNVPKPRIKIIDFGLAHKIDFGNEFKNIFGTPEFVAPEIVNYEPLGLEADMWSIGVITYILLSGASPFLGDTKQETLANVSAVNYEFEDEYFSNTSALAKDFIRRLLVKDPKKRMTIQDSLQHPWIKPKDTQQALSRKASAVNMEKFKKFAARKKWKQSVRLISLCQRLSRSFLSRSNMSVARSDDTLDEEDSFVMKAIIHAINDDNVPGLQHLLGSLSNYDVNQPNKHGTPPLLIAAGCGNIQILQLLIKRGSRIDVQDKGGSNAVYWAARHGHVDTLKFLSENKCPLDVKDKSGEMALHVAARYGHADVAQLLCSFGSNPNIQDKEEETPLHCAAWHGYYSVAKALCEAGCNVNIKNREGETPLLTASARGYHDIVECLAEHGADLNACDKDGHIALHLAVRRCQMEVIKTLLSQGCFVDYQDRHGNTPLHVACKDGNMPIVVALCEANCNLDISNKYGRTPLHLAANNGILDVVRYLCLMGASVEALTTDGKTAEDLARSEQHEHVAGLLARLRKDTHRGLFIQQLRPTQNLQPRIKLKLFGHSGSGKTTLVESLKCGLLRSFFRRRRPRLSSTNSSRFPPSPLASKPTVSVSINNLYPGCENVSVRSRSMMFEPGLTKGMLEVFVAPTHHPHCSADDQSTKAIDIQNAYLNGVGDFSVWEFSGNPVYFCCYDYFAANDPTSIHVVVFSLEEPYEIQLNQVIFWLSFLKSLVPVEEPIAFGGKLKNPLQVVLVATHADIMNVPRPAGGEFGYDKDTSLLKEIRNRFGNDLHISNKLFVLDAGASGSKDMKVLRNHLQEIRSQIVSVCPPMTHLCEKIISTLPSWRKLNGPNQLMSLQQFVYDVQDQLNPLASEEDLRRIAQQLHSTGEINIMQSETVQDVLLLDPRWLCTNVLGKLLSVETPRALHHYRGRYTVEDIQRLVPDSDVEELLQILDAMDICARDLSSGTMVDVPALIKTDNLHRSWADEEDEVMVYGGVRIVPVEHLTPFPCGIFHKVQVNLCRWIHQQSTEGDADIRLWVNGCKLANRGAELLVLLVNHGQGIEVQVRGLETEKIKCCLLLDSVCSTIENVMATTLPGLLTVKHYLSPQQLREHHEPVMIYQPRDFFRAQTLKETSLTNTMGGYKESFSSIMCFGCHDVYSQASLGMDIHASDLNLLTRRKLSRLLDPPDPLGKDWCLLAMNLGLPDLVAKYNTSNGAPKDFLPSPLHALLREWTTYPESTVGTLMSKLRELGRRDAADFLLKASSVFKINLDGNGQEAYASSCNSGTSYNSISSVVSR
Chain of UniProt P11802 (whole entry, looked up): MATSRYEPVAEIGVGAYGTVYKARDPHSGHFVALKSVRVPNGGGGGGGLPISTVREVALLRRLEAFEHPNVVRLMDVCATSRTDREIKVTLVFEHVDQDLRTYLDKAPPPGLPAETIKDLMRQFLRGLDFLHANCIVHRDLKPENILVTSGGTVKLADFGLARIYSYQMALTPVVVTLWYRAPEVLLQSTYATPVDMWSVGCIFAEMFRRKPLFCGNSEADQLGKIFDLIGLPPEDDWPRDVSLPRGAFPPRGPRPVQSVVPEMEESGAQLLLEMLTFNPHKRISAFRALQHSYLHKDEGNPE

Set 1
SMILES: CC(=O)Nc1c(C(C)=O)c(=O)n(C)c2nc(-c3ccc(Cl)cc3Cl)c(-c3ccc(Cl)cc3)cc12
Technique: competition with immobilised ligand
Tested at: 1 µM
| target | observed | remaining binding [%] |
| --- | --- | --- |
| CAMK4 (Homo sapiens, UniProt Q16566) | cell-free assay | 100 |
| TEC (Homo sapiens, UniProt P42680) | cell-free assay | 100 |
| PIK3C3 (Homo sapiens, UniProt Q8NEB9) | cell-free assay | 100 |
| ALK (Homo sapiens, UniProt Q9UM73, C1156Y) | cell-free assay | 100 |
| PIP4K2B (Homo sapiens, UniProt P78356) | cell-free assay | 91 |
| DCLK2 (Homo sapiens, UniProt Q8N568) | cell-free assay | 100 |
| ERBB4 (Homo sapiens, UniProt Q15303) | cell-free assay | 91 |
| Myosin-IIIb (MYO3B, Homo sapiens, UniProt Q8WXR4) | binding | 100 |
| CDK11A (Homo sapiens, UniProt Q9UQ88) | binding | 100 |
| ROCK2 (Homo sapiens, UniProt O75116) | cell-free assay | 100 |

Set 2
Structure (SMILES): Cn1cnc2cc3c(Nc4cccc(Br)c4)ncnc3cc21
Observed: enzyme activity
Mode: inhibitor
Tested at: 0.5 µM
Relative to: control
| target | remaining activity |
| --- | --- |
| Cyclin-dependent kinase 4, with cyclin D1 (CDK4, Homo sapiens, UniProt P11802) | 84% |
| CHEK2 (Homo sapiens, UniProt O96017) | 101% |
| cGMP-dependent protein kinase 1, isoform beta (PRKG1, Homo sapiens, UniProt Q13976) | 98% |
| CAMKK2 (Homo sapiens, UniProt Q96RR4) | 99.6% |
| DAPK1 (Homo sapiens, UniProt P53355) | 87.2% |
| PRKCA (Homo sapiens, UniProt P17252) | 79% |
| MAP3K3 (Homo sapiens, UniProt Q99759) | 109% |
| IKBKE (Homo sapiens, UniProt Q14164) | 98.7% |

Set 3
Cell line: A-375
Tested at: 100 µM
Time: 18 h
| SMILES | viability |
| --- | --- |
| CN(C)CCCN1c2ccccc2Sc2ccc(Cl)cc21 | 8.27% |
| O=C(Oc1ccccc1C(=O)O)c1ccccc1O | 83.7% |
| Cc1ccc(Cl)c(Nc2ccccc2C(=O)O)c1Cl | 58.1% |
| [H]/N=C(/N)N/C(=N/[H])NCCc1ccccc1 | 98.7% |
| O=c1cc[nH]c(=S)[nH]1 | 103% |

Set 4
Structure (SMILES): COc1cc(C(=O)OCCCN2CCCN(CCCOC(=O)c3cc(OC)c(OC)c(OC)c3)CC2)cc(OC)c1OC
| technique | species | route | dose | time | notes | paw withdrawal frequency |
| --- | --- | --- | --- | --- | --- | --- |
| von Frey, 0.4 g filament | mouse, CFA inflammatory pain | intravenous | dose not given | 5 h post-dose | first injection, day 1 | 80% and 90% and 70% |
| von Frey test | mouse, STZ diabetic neuropathy | subcutaneous | 30 mg/kg, second of three doses | 5 h | – | 0.08 fraction of stimuli and 0.36 fraction of stimuli and 0.17 fraction of stimuli and 0.13 fraction of stimuli and 0.32 fraction of stimuli |
| von Frey, 0.4 g filament | mouse, CFA inflammatory pain | subcutaneous | 10 mg/kg | 5 h post-dose | first injection, day 1 | 70% and 60% and 90% and 80% |
| von Frey, 0.4 g filament | mouse, CFA inflammatory pain | subcutaneous | 10 mg/kg | 24 h post-dose | second injection, day 3 | 90% and 70% and 80% and 60% |
| von Frey test | mouse, STZ diabetic neuropathy | subcutaneous | 30 mg/kg, second of three doses | 1 h | – | 0.75 fraction of stimuli and 0.1 fraction of stimuli and 0.23 fraction of stimuli and 0.29 fraction of stimuli |

A few entries again (set 3):
| SMILES | viability |
| --- | --- |
| [H]/N=C(/N)N/C(=N/[H])NCCc1ccccc1 | 98.7% |
| CN(C)CCCN1c2ccccc2Sc2ccc(Cl)cc21 | 8.27% |
